Results from different studies.
Each line is one published result; not all experiments were run side by side. Several values in a cell are separate wells, animals, samples, runs or records. Numbers after ± are the reported error.
Method: steady-state kinetics
B1: enzyme D236N (Acetivibrio thermocellus, UniProt A3DJ38); chain MKLTIPELSLVVLIGSSGSGKSTFAKKHFKPTEVISSDFCRGLVSDDENDQTVTGAAFDVLHYIVSKRLQLGKLTVVDATNVQESARKPLIEIAKDYHCFPVAVVFNLPEKVCQERNKNRTDRQVEEYVIRKHTQQLKKSIKGLQREGFRYVYILNSPEEVEEVVFERQPLWNNKKDEHGPFDIIGDIHGCYDELKMLLEKLGYLIEEVEGGVGSGKYRVTHPEGRKVLFLGDLVNRGPKITEVLKLVMGMVKSGIALCVPGNHDVKLLRKLNGRDVQITHGLDRTLEQLAKEPQEFIEEVKAFIDGLVSHYVLDDGKLVVAHAGMKEEFQGRGSGKVREFALYGETTGETDEYGLPVRYDWASDYRGKALVVYGHTPQAEVLKVNNTINIDTGCVFGGKLTAYRYPEREIVDVKALKTYYEPAKPFLPKEDMAERFEARTDNDILDINDVLGKKIITTRLMSSITIHEENSIAALEVMSRFAADPHWLIYLPPTMSPCETSKKEGMLEHPIEAFEYFRTRGVGKVVCEQKHMGSRAVVIVCKDSQVAEKRFGVLDGTAGICYTRTGRHFFDDMQLEAELIDRVRKVLDKSGFWGDFNTDWVCLDCELMPWSAKAQKLLEEQYSAVGISGRVVLDEAVKLLKQASLNKTVSFDVSRQTSGKNADINELLQRFTERSEMMQKYVEAYRKYCWPVNSIDDLKLAPFHILATEGKVHSDKNHIWHMDTIAKYCTQDDSLIMATNHILVDVTDAESVDKGIKWWEDLTASGGEGMVVKPYDFIVKNGRELLQPAVKCRGREYLRIIYGPEYTMDENIERLRNRAVGKKRSLALREFSLGMEALERFVRNEPLYRVHECVFGVLALESEPVDPRL
B2: enzyme (Streptomyces coelicolor, UniProt Q9F1Y6); chain MPDSGTLGTPPPEQGPTPPTTLPDVPAPVIPSASVTSAASDFLAALHPPVTVPDPAPPPPPAPAAGNPPDTVTGDSVLQRILRGPTGPGTTSLAPAVRYGRQPGPEAPASAPPAAGRAVPGLYHHPVPEPDPVRVEEVSRRIKRWAEDEVQLYPEEWEGQFDGFSVGRYMVGCHPDAPTVDHLMLATRLMVAENAVDDCYCEDHGGSPVGLGGRLLLAHTAIDHFHSTAEYTPTWQASLAADAPRRAYDSAMGYFVRAATPSQSDRYRHDMARLHLGYLAEGAWAQTGHVPEVWEYLAMRQFNNFRPCPTITDTVGGYELPADLHARPDMQRVIALAGNATTIVNDLYSYTKELNSPGRHLNLPVVIAEREQLCERDAYLKAVEVHNELQHSFEAAAADLAEACPLPPVLRFLRGVAAWVDGNHDWHRTNTYRYSLPDFW
B3: protein E27A (uncultured bacterium HF130_AEPn_1, UniProt D0E8I5); chain MSLSNSSKVSVLISLLEKSRDLDYIGAAINQLEHSLQCAYFAQRSGADNEMVLAALLHDLGHYCNDTSFEDMGGYGVWQHEKVGADYLRGLGFSERVACLIEGHVAAKRYLVSSKASYLKNLSDASRKTLEYQGGPMDEGERRLFEEREDFKDCLKIRAWDEKGKQTDLKVPGPEHYRKMMEEHLSENQN
B4: enzyme N249W (Thermobifida fusca, UniProt Q47RK4); chain MTDVYILDAVRTPFGRYGGALSGIRPDDLAAHVLRALAERSPGLDPAAVDDVFFGDANGAGEDNRNVARMAALLAGWPTSVPGVTLNRLCGSGMESVIAANRAIAVGDASLAVAGGVESMSRAPWVLPKPAQGFPTGHETLYSTTLGWRMVNPAMPEQWTVSLGESTEQVAATYGISRAEQDAFALRSHERAARAWAEGVFDAEITQIPGAELERDESIRETSAEKLAALKPAFRPDGTITAGNASPLWDGAAALLIGDAAAAERVGREPLARIVSRGVAAVDPDVFGIGPVQAAEIALRRAGIGWDDLSVVELNEAFAAQSLACLKLWPDLDPEIVNPNGGAIAIGHPLGASGARIVGTLAHELHRRGGGWGLAAICIGVGQGLAVVLHR
B5: enzyme (Vibrio cholerae, UniProt Q9KKP2); chain MNQSSLLAEFGDPITRVENALQALREGRGVLLLDDEDRENEGDIIYAVESLTTAQMALMIRECSGIVCLCLTEAQADRLALPPMVVNNNSANQTAFTVSIEAKHGVTTGVSAQDRVTTIKTAANPQAKPEDLARPGHVFPLRARAGGVLARRGHTEGTVDLMQMAGLQPAGVLCELTNPDGSMAKTPEIIEFGKLHNMPVLTIEDMVQYRIQFDLKLA
B6: nitrilase (Rhodococcus rhodochrous, UniProt A4LA85); chain MVEYTNTFKVAAVQAQPVWFDAAKTVDKTVSIIAEAARNGCELVAFPEVFIPGYPYHIWVDSPLAGMAKFAVRYHENSLTMDSPHVQRLLDAARDHNIAVVVGISERDGGSLYMTQLIIDADGQLVARRRKLKPTHVERSVYGEGNGSDISVYDMPFARLGALNCWEHFQTLTKYAMYSMHEQVHVASWPGMSLYQPEVPAFGVDAQLTATRMYALEGQTFVVCTTQVVTPEAHEFFCENEEQRKLIGRGGGFARIIGPDGRDLATPLAEDEEGILYADIDLSAITLAKQAADPVGHYSRPDVLSLNFNQRRTTPVNTPLSTIHATHTFVPQFGALDGVRELNGADEQRALPSTHSDETDRATASI
B7: STH1425 H227V (Symbiobacterium thermophilum, UniProt Q67PI3); chain MDKLRVAVVGYGNVGRYALEAVQAAPDMELVGVVRRKVLAATPPELTGVRVVTDISQLEGVQGALLCVPTRSVPEYAEAMLRRGIHTVDSYDIHGDLADLRRRLDPVAREHGAAAVISAGWDPGTDSIIRALLEFMAPKGITYTNFGPGMSMGHSVAVKAIPGVRDALSMTIPAGMGVHKRAVYVELEPGADFAEVERAIKTDPYFVRDETRVTQVESVSALMDVGVGVVMERKGVSGATHNQLFRFEMRINNPALTAQVMVAALRAAARQKPGCYTMIEIPVIDYLPGDREAWIRKLV
Chain of UniProt Q06528 (whole entry, looked up): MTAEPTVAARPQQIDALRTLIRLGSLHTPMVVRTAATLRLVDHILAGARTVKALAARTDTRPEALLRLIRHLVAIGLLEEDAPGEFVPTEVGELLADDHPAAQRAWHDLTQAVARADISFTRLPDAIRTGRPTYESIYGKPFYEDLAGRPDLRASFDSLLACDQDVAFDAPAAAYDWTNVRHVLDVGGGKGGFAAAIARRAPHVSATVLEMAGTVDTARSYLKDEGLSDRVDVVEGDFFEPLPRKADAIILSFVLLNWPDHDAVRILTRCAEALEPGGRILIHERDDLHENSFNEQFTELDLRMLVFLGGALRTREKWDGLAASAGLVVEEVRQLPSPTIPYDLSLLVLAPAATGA
Chain of UniProt P21645 (whole entry, looked up): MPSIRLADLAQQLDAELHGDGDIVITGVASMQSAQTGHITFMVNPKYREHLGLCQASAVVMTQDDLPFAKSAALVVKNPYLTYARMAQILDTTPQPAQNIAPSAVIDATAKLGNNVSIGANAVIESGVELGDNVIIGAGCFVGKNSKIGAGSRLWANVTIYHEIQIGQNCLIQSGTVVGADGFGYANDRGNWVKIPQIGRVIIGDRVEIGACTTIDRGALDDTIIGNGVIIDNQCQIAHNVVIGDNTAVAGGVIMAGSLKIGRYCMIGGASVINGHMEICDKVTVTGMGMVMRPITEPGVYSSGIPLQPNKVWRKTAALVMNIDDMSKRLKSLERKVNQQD

With `lpxD (Escherichia coli, UniProt P21645)` the kcat was 3 s⁻¹ (CCCCCCCCCCC[C@@H](O)CC(=O)O[C@@H]1[C@@H](N)[C@@H](OP(=O)(O)OP(=O)(O)OC[C@H]2O[C@@H](n3ccc(=O)[nH]c3=O)[C@H](O)[C@@H]2O)O[C@H](CO)[C@H]1O; pH 8, 25 °C).
`B1 (enzyme D236N)` has a kcat of 5.77 ± 0.233 s⁻¹ (Nc1ncnc2c1ncn2[C@@H]1O[C@H](CO)[C@H]2OP(=O)(O)O[C@H]21; pH 7.5, 45 °C).
For `B2 (enzyme)`, the kcat was 0.105 ± 0.007 s⁻¹ (CC(C)=CCC/C(C)=C(\C)COP(=O)(O)OP(=O)(O)O; pH 6.7, 30 °C).
With `plcB (Listeria monocytogenes, UniProt P33378)` the kcat was 8.5 ± 0.7 s⁻¹ (CCCCCCC(=O)OC[C@H](COP(=O)([O-])OCC[N+](C)(C)C)OC(=O)CCCCCC; pH 6, 37 °C).
The kcat of `B3 (protein E27A)` is reported as 0.28 s⁻¹ and 0.25 s⁻¹ (NC[C@H](O)P(=O)(O)O; pH 7, 25 °C, NaCl 150 mM, together with: O2, Fe(II) 100 µM, ascorbate 100 µM).
With `pat (Salmonella enterica, UniProt Q8ZMX2)` the kcat was 4.3 ± 0.3 s⁻¹ (CC(=O)SCCNC(=O)CCNC(=O)[C@H](O)C(C)(C)COP(=O)(O)OP(=O)(O)OC[C@H]1O[C@@H](n2cnc3c(N)ncnc32)[C@H](O)[C@@H]1OP(=O)(O)O; pH 7.5, 37 °C, apparent, sigmoidal fit, together with: AcsC 400 µM).
The kcat of `lovB H985A (Aspergillus terreus)` is reported as 0.572 s⁻¹ (CCCC(=O)CC(=O)SCCNC(C)=O).
`dnrK (Streptomyces peucetius, UniProt Q06528)` has a kcat of 0.000317 ± 1.67e-05 s⁻¹ (O=[N+]([O-])c1ccc(O)c(Cl)c1; pH 8, 37 °C).
`B4 (enzyme N249W)` has a kcat of 0.00517 ± 7.83e-05 s⁻¹ (CC(=O)SCCNC(=O)CCNC(=O)[C@H](O)C(C)(C)COP(=O)(O)OP(=O)(O)OC[C@H]1O[C@@H](n2cnc3c(N)ncnc32)[C@H](O)[C@@H]1OP(=O)(O)O; pH 7.4, 37 °C).
With `Lxyl-p1-1 (Lentinula edodes, UniProt G8GLN9)` the kcat was 2.13 ± 0.05 s⁻¹ ([H][C@]12[C@H](OC(=O)c3ccccc3)[C@]3(O)C[C@H](OC(=O)[C@H](O)[C@@H](NC(=O)c4ccccc4)c4ccccc4)C(C)=C([C@@H](O)C(=O)[C@]1(C)[C@@H](O[C@@H]1OC[C@@H](O)[C@H](O)[C@H]1O)C[C@@]1([H])OC[C@@]21OC(C)=O)C3(C)C).
For `B5 (enzyme)`, the kcat was 0.0367 ± 0.00333 s⁻¹ (O=C(CO)[C@H](O)[C@H](O)COP(=O)(O)O; pH 7.5).
With `B6 (nitrilase)` the kcat was 0.00046 ± 4e-05 s⁻¹ (N#CCCCCC#N; pH 7.5, 25 °C).
`B7 (STH1425 H227V)` gave a kcat of 1.13 ± 0.06 s⁻¹ (O=C(O)C(=O)Cc1ccccc1; pH 9, 30 °C, reductive amination, together with: NH4Cl 200 mM, NADPH 0.5 mM).
`OXA-48 (Klebsiella pneumoniae, UniProt Q6XEC0)` has a kcat of 0.066 ± 0.002 s⁻¹ (C[C@@H](O)[C@H]1C(=O)N2C(C(=O)O)=C(S[C@@H]3CN[C@H](CNS(N)(=O)=O)C3)[C@H](C)[C@H]12; pH 7.2, 30 °C).
The kcat of `aacA-aphD (Staphylococcus aureus, UniProt P0A0C1)` is reported as 0.58 ± 0.04 s⁻¹ (NCC[C@H](O)C(=O)N[C@@H]1C[C@H](N)[C@@H](O[C@H]2O[C@H](CN)[C@@H](O)[C@H](O)[C@H]2O)[C@H](O)[C@H]1O[C@H]1O[C@H](CO)[C@@H](O)[C@H](N)[C@H]1O; pH 7.5, 25 °C).
